Earlier results, collected from citations in different studies.
Each numbered part shows a few of the values that one paper quotes.

Study 1
Organism: Cryptosporidium parvum
Concentration: concentration not given
| SMILES | activity |
| --- | --- |
| Nc1c2c(nc3ccccc13)CCCC2 | inactive |
| COc1ccc2cc([C@H](C)C(=O)O)ccc2c1 | inactive |
| CC(C)NCC(O)COc1ccc(CCOCC2CC2)cc1 (stereo not shown) | inactive |
| NCCc1ccc(O)c(O)c1 | inactive |
| CN1CCC[C@H]1c1cccnc1 | inactive |
| CNCC(O)c1ccc(O)c(O)c1 (stereo not shown) | inactive |

Further values, each from its own experiment
| SMILES | tested on | test | system | setting | endpoint | value |
| --- | --- | --- | --- | --- | --- | --- |
| COCCc1ccc(-c2c(C)nc3c(N4CCOCC4)ccnn23)cn1 | PDE1B | – | – | – | Ki | 3.4 µM |
| COc1cc(O)c2c(c1O)-c1nccc(C)c1C2=O | Plasmodium falciparum | – | Dd2 | – | IC50 | 11.4 µM |
| CNC(=O)Nc1ccc2c(c1)C1(CC2)OC(=O)N(CC(=O)N(Cc2ccc(F)cc2)[C@@H](C)C(F)(F)F)C1=O (single isomer, unassigned) | CREBBP | biochemical activity | – | – | IC50 | 9.03 µM |
| CC(=O)O[C@@]12CO[C@@H]1C[C@H](O)[C@@]1(C)C(=O)[C@H](O)C3=C(C)[C@@H](OC(=O)[C@H](O)[C@@H](NC(=O)OC(C)(C)C)c4ccccc4)C[C@@](O)([C@@H](OC(=O)c4ccccc4)[C@H]21)C3(C)C | – | – | human, gastric or gastro-oesophageal junction adenocarcinoma | dose not given, trial | progression-free survival | 2.7 months |
| Cn1c(-c2csc(C3CCN(Cc4nc5ncccc5[nH]4)CC3)n2)nc2ccccc21 | mitochondrial complex I | cell-based | – | – | IC50 | > 30 µM |
| CCc1c2c(nc3ccc(OC(=O)N4CCC(N5CCCCC5)CC4)cc13)-c1cc3c(c(=O)n1C2)COC(=O)[C@]3(O)CC | – | – | human, gastric or gastro-oesophageal junction adenocarcinoma | dose not given, trial | progression-free survival | 2.6 months |
| CN(C)C(=O)Cn1cc(-c2nc([C@@](C)(c3ccc(-c4cnc(N)nc4)cc3)C3CC3)no2)cn1 | ALOX5AP | cellular activity | – | – | IC50 | 0.045 µM |
